Results pooled from the literature.
Numbers after ± are the reported error.

Structure (SMILES) = CC(C)c1ccc(C(=O)Nc2ccc(CN)cc2)c(O)c1; tested on = SARS-CoV-2; assay = viral replication; test system = D614G; endpoint = EC50; result = 9.91 ± 1.07 µM
Structure (SMILES) = O=C(NC1CCN(c2ncnc3[nH]cnc23)CC1)c1cccc(NS(=O)(=O)c2ccc(C(F)(F)F)cc2)c1; tested on = SARS-CoV-2; assay = viral replication; test system = A549-ACE2, Wuhan-Hu-1; endpoint = EC50; result = 0.064 to 0.302 µM
Structure (SMILES) = CC1CC(c2ccc(C(=O)O)cc2)=NN1c1ccc(C#N)c(Cl)c1 (stereo not shown); tested on = SARS-CoV-2; assay = viral replication; test system = Calu-3, B.1.617.2 Delta variant; setting = 72 h; endpoint = EC50; result = 54 µM
Structure (SMILES) = Brc1nc(CNC23CC4CC(CC(C4)C2)C3)cs1; tested on = Matrix protein 2 (Influenza A virus, UniProt P0DOF5, S31N); assay = proton channel activity, inhibitor; test system = Influenzavirus A, S31N mutant; setting = 100 µM; endpoint = inhibition; result = 38%
Structure (SMILES) = O=C(CCCCCCc1ccc(O)c(O)c1)c1c(O)cccc1O; tested on = SARS-CoV-2; assay = viral replication, MTT; test system = HEK293T ACE2, Gamma P.1; endpoint = EC50; result = 7.2 µM
Structure (SMILES) = O=c1[nH]cnc2c(C3NC(COP(=O)(O)OP(=O)(O)OP(=O)(O)O)C(O)C3O)c[nH]c12 (stereo not shown); tested on = SARS-CoV-2; assay = infectious virus yield; test system = Vero C1008, Omicron BA.1; setting = 48 h; endpoint = EC50; result = 0.38 ± 0.02 µM
Structure (SMILES) = CC(=O)Oc1ccc(CCCCCCCCC(=O)c2c(OC(C)=O)cccc2OC(C)=O)cc1OC(C)=O; tested on = SARS-CoV-2; assay = viral replication, MTT; test system = HEK293T ACE2, Alpha B.1.1.7; endpoint = EC50; result = 1.4 µM
Structure (SMILES) = Cc1ccc(N2CC3CCC(C2)N3C)cc1C(=O)N[C@H](C)c1cc(-c2cnn(C)c2)nc2ccccc12; tested on = SARS-CoV-2; assay = viral replication; test system = Nsp5 L50F/E166V; endpoint = EC50; result = 0.47 µM
Structure (SMILES) = O=C(CCCCCCCCCCc1ccc(O)c(O)c1)c1c(O)cccc1O; tested on = SARS-CoV-2; assay = viral replication, MTT; test system = HEK293T ACE2, Alpha B.1.1.7; endpoint = EC50; result = 5.2 µM
Structure (SMILES) = CC(C)CC(C(=O)N1CC2(CC1C#N)C(=O)Nc1ccccc12)N(C)C(=O)c1cc2c(F)cc(F)c(F)c2[nH]1 (stereo not shown); tested on = SARS-CoV-2; assay = viral replication; test system = Vero E6-TMPRSS2, Omicron variants; endpoint = EC50; result = 0.019 µM
Structure (SMILES) = N#CC1(c2ccc3c(N)ncnn23)OC(COP(=O)(O)OP(=O)(O)OP(=O)(O)O)C(O)C1O (stereo not shown); tested on = SARS-CoV-2; assay = infectious virus yield; test system = Vero C1008, Omicron BA.1; setting = 48 h; endpoint = EC50; result = 1.7 ± 0.08 µM
Structure (SMILES) = CC(C)C(=O)OC[C@H]1O[C@@](C#N)(n2ccc(N)nc2=O)[C@H](O)[C@@H]1O; tested on = SARS-CoV-2; assay = viral replication; test system = Calu-3, Beta; endpoint = EC50; result = 0.06 ± 0.01 µM
Structure (SMILES) = N#Cc1ccc(N2N=C3c4ccc(C(=O)O)cc4CCC3C2C2CCCC2)cc1Cl (stereo not shown); tested on = SARS-CoV-2; assay = viral replication; test system = Calu-3, B.1.617.2 Delta variant; setting = 72 h; endpoint = EC50; result = 3.82 µM
Structure (SMILES) = Oc1ccc(CCCCCCCCC(O)c2c(O)cccc2O)cc1O (stereo not shown); tested on = SARS-CoV-2; assay = viral replication, MTT; test system = HEK293T ACE2, Alpha B.1.1.7; endpoint = EC50; result = 7.3 µM
Structure (SMILES) = CC(C)(C)c1ccc(O)c(C(=O)Nc2ccc(CN)cc2)c1; tested on = SARS-CoV-2; assay = viral replication; test system = D614G; endpoint = EC50; result = 3.32 ± 1.97 µM
Structure (SMILES) = CC1CC(c2ccc(C(=O)NS(C)(=O)=O)cc2)=NN1c1ccc(C#N)c(Cl)c1 (stereo not shown); tested on = SARS-CoV-2; assay = viral replication; test system = Calu-3, B.1.617.2 Delta variant; setting = 72 h; endpoint = EC50; result = 33.2 µM

For quick reference, copied from above:
Structure (SMILES) = Cc1ccc(N2CC3CCC(C2)N3C)cc1C(=O)N[C@H](C)c1cc(-c2cnn(C)c2)nc2ccccc12; tested on = SARS-CoV-2; assay = viral replication; test system = Nsp5 L50F/E166V; endpoint = EC50; result = 0.47 µM
Structure (SMILES) = N#Cc1ccc(N2N=C3c4ccc(C(=O)O)cc4CCC3C2C2CCCC2)cc1Cl (stereo not shown); tested on = SARS-CoV-2; assay = viral replication; test system = Calu-3, B.1.617.2 Delta variant; setting = 72 h; endpoint = EC50; result = 3.82 µM
